Published values collected from several papers.
Each line is one published result; not all experiments were run side by side. Several values in a cell are separate wells, animals, samples, runs or records. ± marks the error that the study gave. ≈ marks a conversion by molar mass, not a printed value.
Sequence of UniProt P08069 (whole entry, looked up): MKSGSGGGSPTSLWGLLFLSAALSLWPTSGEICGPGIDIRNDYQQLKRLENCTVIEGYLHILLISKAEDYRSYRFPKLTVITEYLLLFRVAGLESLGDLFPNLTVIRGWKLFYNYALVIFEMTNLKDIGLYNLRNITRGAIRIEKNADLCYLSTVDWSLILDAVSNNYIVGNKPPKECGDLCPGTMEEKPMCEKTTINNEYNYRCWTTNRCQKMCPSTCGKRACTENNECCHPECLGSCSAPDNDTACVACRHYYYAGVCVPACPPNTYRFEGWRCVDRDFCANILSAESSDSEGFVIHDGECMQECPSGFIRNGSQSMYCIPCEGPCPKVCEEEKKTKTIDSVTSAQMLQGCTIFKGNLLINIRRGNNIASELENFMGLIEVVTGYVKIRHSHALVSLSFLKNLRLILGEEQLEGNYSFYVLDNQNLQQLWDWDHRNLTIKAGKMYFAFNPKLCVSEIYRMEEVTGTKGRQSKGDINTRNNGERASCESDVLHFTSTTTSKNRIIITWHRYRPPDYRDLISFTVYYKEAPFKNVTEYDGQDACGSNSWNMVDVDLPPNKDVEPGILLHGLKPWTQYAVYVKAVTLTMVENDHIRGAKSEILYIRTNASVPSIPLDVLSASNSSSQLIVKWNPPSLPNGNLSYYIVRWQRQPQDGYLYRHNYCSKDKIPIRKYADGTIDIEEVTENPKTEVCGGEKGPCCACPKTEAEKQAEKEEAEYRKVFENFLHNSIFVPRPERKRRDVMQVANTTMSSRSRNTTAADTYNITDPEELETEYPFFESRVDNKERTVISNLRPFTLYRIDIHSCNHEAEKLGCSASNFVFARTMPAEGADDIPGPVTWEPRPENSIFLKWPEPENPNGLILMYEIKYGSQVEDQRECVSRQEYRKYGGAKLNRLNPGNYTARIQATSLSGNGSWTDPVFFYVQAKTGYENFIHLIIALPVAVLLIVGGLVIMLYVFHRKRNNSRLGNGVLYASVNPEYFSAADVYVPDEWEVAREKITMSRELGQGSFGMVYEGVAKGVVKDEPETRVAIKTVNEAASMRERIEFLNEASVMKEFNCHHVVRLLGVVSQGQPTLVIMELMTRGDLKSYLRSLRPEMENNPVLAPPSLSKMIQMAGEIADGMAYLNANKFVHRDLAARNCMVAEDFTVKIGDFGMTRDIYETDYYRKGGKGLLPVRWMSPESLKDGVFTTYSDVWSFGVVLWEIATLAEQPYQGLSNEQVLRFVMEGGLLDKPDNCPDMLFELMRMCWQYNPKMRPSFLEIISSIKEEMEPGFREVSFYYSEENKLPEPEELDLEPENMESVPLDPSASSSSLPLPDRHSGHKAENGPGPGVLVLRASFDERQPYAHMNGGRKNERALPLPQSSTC

The relative abundance of C[C@H]1CN(c2n[nH]c3nc(N[C@H]4CC[C@H](NS(=O)(=O)CCC(F)(F)F)CC4)ncc23)CCO1 is reported as 0.99 (IGF1R (Homo sapiens, UniProt P08069); inhibitor, Kinobeads competition profiling; 0.8 µM; baseline: vehicle).
N=C(N)c1ccc(OCc2ccc(-c3ccccc3)cc2COc2ccc(C(=N)N)cc2)cc1 has an FICI of 0.047 (Escherichia coli; checkerboard; mcr-1 polymyxin-resistant; unit not given, added: rifampicin; lower = stronger synergy).
The IC50 of O=S(=O)(F)Cc1ccccc1 is reported as 100000 nM (Phelipanche ramosa; seed germination, antagonist; added: 2-PEITC 100 nM).
The EC50 of Nc1nc(O)c2ncn(COC(CO)CO)c2n1 is reported as 3150 nM (human cytomegalovirus; viral cytopathic effect; HEL, Davis).
Cn1cc(NC(=O)c2cc(NC(=O)CN=C(N)N)cn2C)cc1C(=O)NCCC(=N)N gave a cell perimeter of 7.24 µm and 7.8 µm and 7.45 µm (Bacillus subtilis; bacterial cytological profiling; ATCC 6633; concentration not given).
COc1cc2ccc3oc([N+](=O)[O-])cc3c2cc1OC gave an MIC90 of 0.016 µg/mL (≈ 0.0586 µM) (Mycobacterium marinum; REMA; ATCC BAA-535).
With CO/N=C(\C(=O)N[C@@H]1C(=O)N2C(C(=O)O)=C(CSC(=O)c3ccco3)CS[C@H]12)c1csc(N)n1 the MBC was 4 µg/mL (Staphylococcus aureus; CAAS-2019-CAAS-2019-17 clinical blaZ-resistant isolate, PBS).
The mortality of CCCCc1ccc(CNc2nc(N(C)C)nc(N(C)C)c2/N=N/c2ccc(Cl)cc2)cc1 is reported as 93.3 ± 5.8% (Plutella xylostella; leaf dipping; 200 mg/L, 96 h).
CC[C@H](C)[C@H](NC(=O)[C@H](CC(N)=O)NC(=O)[C@H](CCCCN)NC(=O)[C@H](CC(=O)O)NC(=O)[C@H](Cc1ccc(O)cc1)NC(=O)[C@H](Cc1ccc(O)cc1)NC(=O)[C@H](Cc1ccc(O)cc1)NC(=O)[C@H](CCCNC(=N)N)NC(=O)[C@H](CC(C)C)NC(=O)CNC(=O)[C@H](CCCNC(=N)N)NC(=O)[C@@H](N)CO)C(=O)N[C@H](C(=O)N[C@@H](Cc1c[nH]cn1)C(=O)N[C@@H](CCCCN)C(=O)N[C@H](C(=O)N[C@@H](C)C(=O)NCC(=O)N[C@@H](CCCCN)C(=O)N[C@@H](CCCNC(=N)N)C(=O)N[C@@H](Cc1ccc(O)cc1)C(=O)N[C@H](C(=O)N[C@@H](Cc1ccc(O)cc1)C(=O)N[C@@H](CCCNC(=N)N)C(=O)N[C@@H](Cc1ccccc1)C(=O)N[C@H](C(=O)O)C(C)C)C(C)C)[C@@H](C)O)[C@@H](C)CC gave an MBC of 64 µg/mL (≈ 19.6 µM) (Micrococcus luteus; NCTC 2665).
CCCCN(CCCC)CC(O)c1cc(Cl)cc2c1-c1ccc(Cl)cc1/C2=C/c1ccc(Cl)cc1 (centres unmarked) — result for “mean survival time”: > 30 days (Plasmodium berghei; Peters test; ANKA, mice; oral, 4 x 30 mg/kg).
For CNCC(=O)N[C@@H](CO)C(=O)N[C@H]1[C@H](O)[C@@H](O)[C@H](n2ccc(N)nc2=O)O[C@@H]1C(N)=O, the inactivation activity was 77% and 70% and 75% (Cucumber mosaic virus; 500 µg/mL).
For COC(=O)[C@@H](N)Cc1ccc(OP2(=O)CO[C@@H](Cn3ccc(N)nc3=O)CO2)cc1 (some centres unmarked), the IC50 was 230 nM (human cytomegalovirus; viral replication).
For CS(=O)(=O)CCCn1c(Cn2c(=O)n(CC(F)(F)F)c3ccncc32)cc2cc(Cl)ccc21, “LS mean viral load change” read -2.39 log10 copies/mL (respiratory syncytial virus; RT-qPCR; hospitalized infants 1-24 months, nasal swab; oral, 6, 4.5 or 3 mg/kg daily, day 4, mid dose by age cohort; baseline: baseline).
For COC(=O)[C@]1(C)CC[C@]2(C)CC[C@]3(C)C4=CC=C5C(=CC(=O)C(O)=C5C)[C@]4(C)CC[C@@]3(C)[C@@H]2C1, the fluorescein ingestion was -47.3% (Drosophila melanogaster; fluorescence; liquid food, 40 µg/mL, first instar larvae; baseline: solvent).
The inhibition of CO/C=C(/C(=O)OC)c1ccccc1Oc1cc(Oc2ccccc2C#N)ncn1 is reported as 70.6 ± 0.9% (Botryosphaeria dothidea; fungal growth, inhibitor; 50 µg/mL).
COC(=O)N[C@H](C(=O)N1CCC[C@H]1c1ncc(-c2ccc(-c3ccc(-c4cnc([C@@H]5CCCN5C(=O)[C@@H](NC(=O)OC)C(C)C)[nH]4)cc3)cc2)[nH]1)C(C)C has a combination index of 0.73 (Hepatitis C virus; replicon cells; 50% effect level, added: IFN-alpha, ratio 1:1).
For C[C@H]1COCCN1c1nc(NCc2cccnc2C(F)(F)F)c2cccnc2n1, “maximum adult worm burden” read 18 worms per mouse (Brugia malayi; SCID mouse; dose not given, 6 weeks post-treatment, dosing x14d).
For O=C(NNc1ccc(Cl)c(Cl)c1)c1nnc(CC23CC4CC(CC(C4)C2)C3)o1, the inhibition was 100% (Botryosphaeria dothidea; fungal growth, inhibitor; 50 µg/mL).
For CC[C@H](C)[C@H](NC(=O)[C@H](C)NC(=O)[C@H](CCCCN)NC(=O)[C@H](CC(C)C)NC(=O)[C@H](C)NC(=O)[C@@H](NC(=O)[C@H](Cc1c[nH]cn1)NC(=O)[C@H](CC(C)C)NC(=O)[C@@H](NC(=O)[C@@H](NC(=O)[C@H](CCCCN)NC(=O)[C@H](C)NC(=O)[C@H](C)NC(=O)[C@H](CO)NC(=O)[C@H](CCCCN)NC(=O)[C@H](Cc1ccccc1)NC(=O)[C@@H](NC(=O)[C@H](CCCCN)NC(=O)[C@H](CC(C)C)NC(=O)[C@H](Cc1ccccc1)NC(=O)[C@H](CO)NC(=O)[C@H](CCCCN)NC(=O)[C@H](Cc1c[nH]c2ccccc12)NC(=O)[C@H](CCCCN)NC(C)=O)[C@@H](C)O)[C@@H](C)O)C(C)C)[C@@H](C)O)C(=O)N[C@@H](CO)C(=O)N[C@@H](CO)C(N)=O, the MIC90 was 8 µg/mL (≈ 2.73 µM) (Klebsiella pneumoniae; 80 strains).
For CCc1c(Cl)c(O)c(Cl)c(O)c1C(=O)O[C@H]1[C@H](O)[C@H](OC)[C@H](OC/C2=C\C=C\C[C@H](O)/C(C)=C/[C@H](CC)[C@@H](O[C@@H]3OC(C)(C)[C@@H](OC(=O)C(C)C)[C@H](O)[C@@H]3O)/C(C)=C/C(C)=C/C[C@@H]([C@@H](C)O)OC2=O)O[C@@H]1C, antibacterial activity read “inactive” (Gram-negative bacteria; concentration not given).
C=CC[C@@H]1c2ccc(OC)c(OC)c2CN2CCc3cc4c(cc3[C@H]12)OCO4: “relative wound size” 0.66 and 0.98 and 0.42 and 0.99 and 0.92 (Staphylococcus aureus; P2rx7 A312V/A312V mice, skin wound infection; dose not given, day 4; baseline: day 0).
CC[C@H](C)[C@H]1O[C@]2(CC[C@@H]1C)C[C@@H]1C[C@@H](C/C=C(\C)[C@@H](O[C@H]3C[C@H](OC)[C@@H](O[C@H]4C[C@H](OC)[C@@H](O)[C@H](C)O4)[C@H](C)O3)[C@@H](C)/C=C/C=C3\CO[C@@H]4[C@H](O)C(C)=C[C@@H](C(=O)O1)[C@]34O)O2 has a motility of 34 ± 7.3% (Brugia malayi; adult female worms; 3 µM, 24 h).
C=C(CN(C(=O)c1c(C(F)F)nn(C)c1F)C1CC1)c1ccc(Cl)cc1Cl gave a colony diameter of 8 mm and 7 mm (Alternaria alternata; 1.56 mg/L).
For Cn1c(=O)ccc2ccc(F)c(CCNC[C@H]3CN(c4cnc5c(n4)NC(=O)CO5)C(=O)O3)c21, the MIC90 was < 0.015 µg/mL (Haemophilus influenzae).
For Nc1ncnc2c1ncn2[C@@H]1O[C@@H]2COP(=O)(O)O[C@H]3[C@@H](O)[C@H](n4cnc5c(=O)[nH]cnc54)O[C@@H]3COP(=O)(O)O[C@H]2[C@H]1O, the fold enrichment was 2.28 (West Nile virus; RNA sequencing Reactome analysis, measured: Deubiquitination (R-HSA-5688426); HFF-1; concentration not given, upregulated pathways, added: West Nile virus infection; baseline: WNV-infected without compound).
With CNC(=O)c1cc(Cl)cc(C)c1NC(=O)c1cc(Br)nn1-c1ncccc1Cl the larval viability was 6.1% and 12.1% and 7.5% (Plutella xylostella; Raphanus sativus field plot; 25 ppm, 168 h, 5% water-dispersible granule).
With Cl.N=C(CC(O)c1cc2c(F)cc(F)cc2c2cc(C(F)(F)F)ccc12)Nc1ccc(F)c(F)c1 (centres unmarked) the parasitemia reduction was 99.9% (Plasmodium berghei; Peters suppressive test; ANKA, infected mice; oral, 4 x 10 mg/kg, day 4; baseline: untreated control).
COc1ccc2c(ccc3oc([N+](=O)[O-])cc32)c1 gave an MIC90 of 0.016 µg/mL (≈ 0.0658 µM) (Mycobacterium marinum; REMA; ATCC BAA-535).
The cure rate of Cl.N=C(CC(O)c1cc2c(F)cc(F)cc2c2cc(C(F)(F)F)ccc12)Nc1ccc(Br)cc1 (centres unmarked) is reported as 100% (Plasmodium berghei; 4-day Peters test; ANKA, mouse; oral, 50 mg/kg, four doses).
For N#Cc1ccc2c(ccc3oc([N+](=O)[O-])cc32)c1, the MIC90 was 0.25 µg/mL (≈ 1.05 µM) (Mycobacterium marinum; REMA; ATCC BAA-535).
CN1CCN(S(=O)(=O)c2cc([N+](=O)[O-])ccc2N(CCOS(C)(=O)=O)CCOS(C)(=O)=O)CC1 gave an IC50 of 820 nM (Homo sapiens; cell viability, resazurin or CellTiter-Glo; sample B BCP-ALL PDX cells, ex vivo; 48 h).
Under “mean survival time”, Cl.N/C(CC(O)c1cc2c(F)cc(F)cc2c2cc(C(F)(F)F)ccc12)=N\c1ccc(F)cc1 (centres unmarked) is recorded as 28 days (Plasmodium berghei; Peters test; ANKA, mice; oral, 4 x 10 mg/kg).

For quick reference, copied from above:
For C[C@H]1COCCN1c1nc(NCc2cccnc2C(F)(F)F)c2cccnc2n1, “maximum adult worm burden” read 18 worms per mouse (Brugia malayi; SCID mouse; dose not given, 6 weeks post-treatment, dosing x14d).
For O=C(NNc1ccc(Cl)c(Cl)c1)c1nnc(CC23CC4CC(CC(C4)C2)C3)o1, the inhibition was 100% (Botryosphaeria dothidea; fungal growth, inhibitor; 50 µg/mL).
